Measured values from different studies.
Every numbered part comes from another study and shows a few of its results, in no order. “And” joins repeats or separate records; there may be more than shown.
UniProt P35968, sequence (whole entry, looked up): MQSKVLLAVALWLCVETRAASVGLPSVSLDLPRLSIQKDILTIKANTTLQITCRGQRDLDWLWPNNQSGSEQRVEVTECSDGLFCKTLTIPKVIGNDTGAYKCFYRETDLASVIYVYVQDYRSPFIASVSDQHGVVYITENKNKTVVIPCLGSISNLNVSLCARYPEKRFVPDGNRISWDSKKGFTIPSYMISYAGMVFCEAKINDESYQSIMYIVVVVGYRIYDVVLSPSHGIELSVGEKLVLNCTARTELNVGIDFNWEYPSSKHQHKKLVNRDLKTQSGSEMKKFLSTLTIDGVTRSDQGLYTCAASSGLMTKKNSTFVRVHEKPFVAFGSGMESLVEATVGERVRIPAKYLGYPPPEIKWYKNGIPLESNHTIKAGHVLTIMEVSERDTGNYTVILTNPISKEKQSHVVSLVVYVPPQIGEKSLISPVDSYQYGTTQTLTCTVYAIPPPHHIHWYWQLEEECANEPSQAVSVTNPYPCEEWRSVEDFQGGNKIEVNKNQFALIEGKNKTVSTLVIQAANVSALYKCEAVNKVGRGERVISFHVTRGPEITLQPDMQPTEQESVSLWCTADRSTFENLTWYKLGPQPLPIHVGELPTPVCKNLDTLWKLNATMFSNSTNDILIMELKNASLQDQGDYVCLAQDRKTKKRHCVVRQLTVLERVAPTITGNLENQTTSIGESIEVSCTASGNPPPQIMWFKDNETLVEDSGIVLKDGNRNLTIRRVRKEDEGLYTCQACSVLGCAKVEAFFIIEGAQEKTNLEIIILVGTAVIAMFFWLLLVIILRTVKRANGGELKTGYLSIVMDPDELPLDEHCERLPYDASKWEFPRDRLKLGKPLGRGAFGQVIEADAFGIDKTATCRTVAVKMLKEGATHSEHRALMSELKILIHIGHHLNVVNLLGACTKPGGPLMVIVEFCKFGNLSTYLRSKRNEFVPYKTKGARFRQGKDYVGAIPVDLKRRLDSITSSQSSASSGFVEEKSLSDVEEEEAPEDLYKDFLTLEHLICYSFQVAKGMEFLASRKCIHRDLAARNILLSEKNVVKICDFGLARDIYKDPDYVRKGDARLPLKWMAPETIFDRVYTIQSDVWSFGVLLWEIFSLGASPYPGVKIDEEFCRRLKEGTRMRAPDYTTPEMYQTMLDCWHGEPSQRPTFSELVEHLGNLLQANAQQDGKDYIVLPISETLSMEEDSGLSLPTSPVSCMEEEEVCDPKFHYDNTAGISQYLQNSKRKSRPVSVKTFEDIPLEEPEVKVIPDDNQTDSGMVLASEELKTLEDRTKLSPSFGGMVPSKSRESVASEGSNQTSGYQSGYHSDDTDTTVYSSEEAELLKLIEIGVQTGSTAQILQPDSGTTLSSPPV
UniProt P49760, sequence (whole entry, looked up): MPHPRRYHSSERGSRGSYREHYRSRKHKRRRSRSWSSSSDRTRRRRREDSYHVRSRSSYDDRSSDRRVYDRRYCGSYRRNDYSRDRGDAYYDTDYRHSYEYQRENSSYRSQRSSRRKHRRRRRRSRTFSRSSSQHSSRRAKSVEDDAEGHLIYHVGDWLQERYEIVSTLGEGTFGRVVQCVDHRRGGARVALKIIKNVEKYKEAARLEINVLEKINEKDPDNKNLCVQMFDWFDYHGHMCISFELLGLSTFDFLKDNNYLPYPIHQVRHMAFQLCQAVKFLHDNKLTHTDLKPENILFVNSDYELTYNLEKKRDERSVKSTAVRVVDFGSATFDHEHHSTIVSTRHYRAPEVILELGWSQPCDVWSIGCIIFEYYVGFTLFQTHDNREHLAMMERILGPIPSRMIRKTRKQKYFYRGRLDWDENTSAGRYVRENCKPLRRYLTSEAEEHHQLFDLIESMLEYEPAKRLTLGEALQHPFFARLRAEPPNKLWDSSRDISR
UniProt Q6P2M8, sequence (whole entry, looked up): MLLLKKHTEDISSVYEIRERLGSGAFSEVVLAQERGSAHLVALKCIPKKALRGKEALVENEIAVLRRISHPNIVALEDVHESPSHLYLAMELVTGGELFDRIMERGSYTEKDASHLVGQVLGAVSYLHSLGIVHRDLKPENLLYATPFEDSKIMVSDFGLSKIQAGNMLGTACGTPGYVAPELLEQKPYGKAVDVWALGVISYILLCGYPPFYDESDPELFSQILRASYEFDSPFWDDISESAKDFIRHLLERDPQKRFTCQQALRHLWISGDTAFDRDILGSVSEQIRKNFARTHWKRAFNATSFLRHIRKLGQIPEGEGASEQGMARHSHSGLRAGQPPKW
UniProt P06493, sequence (whole entry, looked up): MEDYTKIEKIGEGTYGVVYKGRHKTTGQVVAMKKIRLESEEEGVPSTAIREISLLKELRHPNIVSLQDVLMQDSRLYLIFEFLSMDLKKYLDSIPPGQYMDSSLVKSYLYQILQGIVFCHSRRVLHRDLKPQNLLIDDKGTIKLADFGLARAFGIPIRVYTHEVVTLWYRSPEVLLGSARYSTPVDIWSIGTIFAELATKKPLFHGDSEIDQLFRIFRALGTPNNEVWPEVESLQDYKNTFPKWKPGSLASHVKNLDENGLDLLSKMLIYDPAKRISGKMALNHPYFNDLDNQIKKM

Series 1 — technique: competition with immobilised ligand; concentration: 1 µM
SMILES: O=C(N1CCS(=O)(=O)CC1)N1C[C@H](c2ccc(OC(F)(F)F)cc2)C[C@H](c2nc(C3CC3)no2)C1
| target | test | remaining binding |
| --- | --- | --- |
| CAMK2B (Homo sapiens, UniProt Q13554) | cell-free assay | 100% |
| MAP2K5 (Homo sapiens, UniProt Q13163) | cell-free assay | 100% |
| CLK2 (Homo sapiens, UniProt P49760) | cell-free assay | 100% |
| FLT4 (Homo sapiens, UniProt P35916) | cell-free assay | 100% |
| KDR (Homo sapiens, UniProt P35968) | cell-free assay | 88% |
| CDKL1 (Homo sapiens, UniProt Q00532) | binding | 100% |
| LATS2 (Homo sapiens, UniProt Q9NRM7) | cell-free assay | 100% |
| MAP2K2 (Homo sapiens, UniProt P36507) | cell-free assay | 100% |

Series 2 — Compound: Ic1cccc(CSc2nnc(-c3ccncc3)o2)c1; effect on: enzyme activity; mode: inhibitor; concentration: 0.5 µM; relative to: control
| target | remaining activity |
| --- | --- |
| Cyclin-dependent kinase 1, with cyclin A (CDK1, Homo sapiens, UniProt P06493) | 99.8% |
| ROCK1 (Homo sapiens, UniProt Q13464) | 88% |
| RPS6KA4 (Homo sapiens, UniProt O75676) | 92.1% |
| MAP2K1 (Homo sapiens, UniProt Q02750) | 95.4% |
| MARK4 (Homo sapiens, UniProt Q96L34) | 86.8% |
| MAPK14 (Homo sapiens, UniProt Q16539) | 99.3% |
| MARK2 (Homo sapiens, UniProt Q7KZI7) | 116% |
| PRKG2 (Homo sapiens, UniProt Q13237) | 105% |
| Cyclin-dependent kinase 9, with cyclin K (CDK9, Homo sapiens, UniProt P50750) | 105% |
| KDR (Homo sapiens, UniProt P35968) | 78.1% |
| PNCK (Homo sapiens, UniProt Q6P2M8) | 101% |
| TXK (Homo sapiens, UniProt P42681) | 96.8% |
| MAPK1 (Homo sapiens, UniProt P28482) | 107% |

Series 3 — species: mouse; matrix: microsomes or S9; concentration: 2 µM; time: 0.5 h
| SMILES | remaining compound |
| --- | --- |
| Cc1csc(-c2noc(Cc3csc(C(C)C)n3)n2)n1 | 8.87% |
| CC(C)(C)NS(=O)(=O)c1ccc(NC(=O)C2c3ccccc3Oc3ccccc32)cc1 | 74.4% |
| O=C(Cn1cncn1)c1ccc(-c2ccccc2)cc1 | 2.92% |
| CC(=O)N(c1ccccc1)C(c1ccccc1)c1nc2ccccc2nc1O (stereo not shown) | 2.63% |
| O=S(=O)(CCNc1ccccc1F)c1ccccc1 | 0.122% |
| CC(C)N(CCNc1ncnc2nc[nH]c12)C(C)C | 54.3% |

Series 4 — mode: inhibitor; concentration: concentration not given; added: without ssDNA
Target: DNA polymerase theta, helicase domain (POLQ, Homo sapiens, UniProt O75417)
UniProt O75417, sequence (whole entry, looked up): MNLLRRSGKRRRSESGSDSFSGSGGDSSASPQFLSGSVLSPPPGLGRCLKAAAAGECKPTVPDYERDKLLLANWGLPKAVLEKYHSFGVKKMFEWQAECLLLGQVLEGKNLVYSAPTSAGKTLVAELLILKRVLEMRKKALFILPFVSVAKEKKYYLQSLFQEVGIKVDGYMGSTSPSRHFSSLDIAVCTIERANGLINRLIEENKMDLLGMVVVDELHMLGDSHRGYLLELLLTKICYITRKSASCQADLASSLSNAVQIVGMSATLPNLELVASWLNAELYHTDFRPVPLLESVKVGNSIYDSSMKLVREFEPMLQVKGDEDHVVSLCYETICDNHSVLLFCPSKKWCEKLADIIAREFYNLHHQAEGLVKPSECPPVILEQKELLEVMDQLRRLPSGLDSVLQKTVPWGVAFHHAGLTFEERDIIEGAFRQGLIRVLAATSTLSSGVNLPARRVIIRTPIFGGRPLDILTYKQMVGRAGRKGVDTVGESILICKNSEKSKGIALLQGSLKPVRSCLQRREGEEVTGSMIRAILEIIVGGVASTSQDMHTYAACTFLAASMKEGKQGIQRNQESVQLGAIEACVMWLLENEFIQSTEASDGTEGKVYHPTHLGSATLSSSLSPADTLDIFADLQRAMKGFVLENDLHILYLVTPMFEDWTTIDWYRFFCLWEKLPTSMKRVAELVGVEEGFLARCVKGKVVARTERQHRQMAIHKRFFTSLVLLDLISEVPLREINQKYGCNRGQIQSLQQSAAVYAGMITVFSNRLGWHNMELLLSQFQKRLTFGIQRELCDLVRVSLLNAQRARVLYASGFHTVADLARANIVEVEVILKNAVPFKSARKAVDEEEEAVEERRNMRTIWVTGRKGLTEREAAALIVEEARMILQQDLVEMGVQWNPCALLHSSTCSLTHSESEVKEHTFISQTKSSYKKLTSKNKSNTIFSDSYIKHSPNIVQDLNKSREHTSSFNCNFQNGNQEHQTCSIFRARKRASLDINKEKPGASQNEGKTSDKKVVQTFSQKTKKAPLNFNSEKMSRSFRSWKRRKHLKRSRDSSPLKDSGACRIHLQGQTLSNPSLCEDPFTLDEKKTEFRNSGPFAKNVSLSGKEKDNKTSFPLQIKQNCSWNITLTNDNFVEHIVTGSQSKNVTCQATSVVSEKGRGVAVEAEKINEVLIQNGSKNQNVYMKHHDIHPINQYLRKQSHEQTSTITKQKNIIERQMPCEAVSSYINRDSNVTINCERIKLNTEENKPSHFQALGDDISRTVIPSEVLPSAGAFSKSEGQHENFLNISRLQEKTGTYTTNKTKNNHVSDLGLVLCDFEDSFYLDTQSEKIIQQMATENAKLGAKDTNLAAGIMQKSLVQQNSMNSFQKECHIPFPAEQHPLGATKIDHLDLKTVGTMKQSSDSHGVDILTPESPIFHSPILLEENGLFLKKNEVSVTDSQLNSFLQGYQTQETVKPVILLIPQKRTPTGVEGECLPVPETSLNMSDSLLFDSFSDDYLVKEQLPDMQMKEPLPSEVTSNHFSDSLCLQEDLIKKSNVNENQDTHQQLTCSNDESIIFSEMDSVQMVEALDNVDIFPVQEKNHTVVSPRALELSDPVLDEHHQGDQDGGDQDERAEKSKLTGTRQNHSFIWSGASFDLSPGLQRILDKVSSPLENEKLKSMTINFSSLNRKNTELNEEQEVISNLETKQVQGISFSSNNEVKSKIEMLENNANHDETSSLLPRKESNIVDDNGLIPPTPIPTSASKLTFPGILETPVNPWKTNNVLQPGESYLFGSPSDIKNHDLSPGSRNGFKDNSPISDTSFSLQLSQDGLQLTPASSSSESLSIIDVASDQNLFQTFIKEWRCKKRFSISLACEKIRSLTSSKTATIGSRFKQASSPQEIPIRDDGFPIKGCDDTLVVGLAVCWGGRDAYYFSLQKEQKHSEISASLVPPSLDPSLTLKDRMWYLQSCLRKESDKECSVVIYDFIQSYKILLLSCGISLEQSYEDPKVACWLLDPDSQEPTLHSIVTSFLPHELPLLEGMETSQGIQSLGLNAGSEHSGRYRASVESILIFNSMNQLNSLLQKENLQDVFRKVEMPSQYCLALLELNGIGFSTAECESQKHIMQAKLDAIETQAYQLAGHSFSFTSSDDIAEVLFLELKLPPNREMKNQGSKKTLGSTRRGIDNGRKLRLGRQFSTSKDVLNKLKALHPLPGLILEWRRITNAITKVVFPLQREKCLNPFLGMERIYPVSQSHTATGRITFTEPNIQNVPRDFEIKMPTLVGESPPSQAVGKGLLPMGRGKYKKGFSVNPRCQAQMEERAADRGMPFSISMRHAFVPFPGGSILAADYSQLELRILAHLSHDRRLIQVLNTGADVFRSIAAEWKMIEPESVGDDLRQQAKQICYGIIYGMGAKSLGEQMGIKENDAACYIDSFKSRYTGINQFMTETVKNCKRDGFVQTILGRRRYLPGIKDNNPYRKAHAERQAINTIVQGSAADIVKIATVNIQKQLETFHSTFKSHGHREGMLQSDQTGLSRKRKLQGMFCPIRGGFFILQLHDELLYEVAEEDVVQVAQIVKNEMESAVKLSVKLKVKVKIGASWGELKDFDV
| Compound | remaining activity |
| --- | --- |
| O=C(CSc1ncc(S(=O)(=O)c2ccc(Br)cc2)c(=O)[nH]1)NCc1ccc(Cl)cc1 | 68.8% and 67.6% |
| O=c1[nH]c2cc(Cl)ccc2c(O)c1-c1cccc(Oc2ccccc2)c1 | 66.1% |
| COc1ccc(S(=O)(=O)c2cnc(SCC(=O)Nc3cc(F)ccc3C)[nH]c2=O)cc1Cl | 80.2% and 77.4% |
| CCc1ccc(/C=C2/SC(=S)NC2=O)cc1 | 42.5% and 47.5% |
| Cc1ccc(C2C=C(c3ccccc3)N=C3N=C(NS(C)(=O)=O)NN32)cc1 (stereo not shown) | 88.8% and 90% |
| Cc1ccc(-c2n[nH]c3c2C(c2cccc(O)c2)N(c2ccc(C(=O)O)cc2)C3=O)cc1 (stereo not shown) | 59.7% and 56.6% |
| Cc1ccc(NC(=O)CSc2ncc(S(=O)(=O)c3ccc(C(C)C)cc3)c(=O)[nH]2)cc1C | 88.6% and 95.6% |
